Results gathered from unrelated publications.
A part holds a random share of what one study measured. Several values in a cell are separate wells, animals, samples, runs or records.
Sequence of UniProt Q92630 (whole entry, looked up): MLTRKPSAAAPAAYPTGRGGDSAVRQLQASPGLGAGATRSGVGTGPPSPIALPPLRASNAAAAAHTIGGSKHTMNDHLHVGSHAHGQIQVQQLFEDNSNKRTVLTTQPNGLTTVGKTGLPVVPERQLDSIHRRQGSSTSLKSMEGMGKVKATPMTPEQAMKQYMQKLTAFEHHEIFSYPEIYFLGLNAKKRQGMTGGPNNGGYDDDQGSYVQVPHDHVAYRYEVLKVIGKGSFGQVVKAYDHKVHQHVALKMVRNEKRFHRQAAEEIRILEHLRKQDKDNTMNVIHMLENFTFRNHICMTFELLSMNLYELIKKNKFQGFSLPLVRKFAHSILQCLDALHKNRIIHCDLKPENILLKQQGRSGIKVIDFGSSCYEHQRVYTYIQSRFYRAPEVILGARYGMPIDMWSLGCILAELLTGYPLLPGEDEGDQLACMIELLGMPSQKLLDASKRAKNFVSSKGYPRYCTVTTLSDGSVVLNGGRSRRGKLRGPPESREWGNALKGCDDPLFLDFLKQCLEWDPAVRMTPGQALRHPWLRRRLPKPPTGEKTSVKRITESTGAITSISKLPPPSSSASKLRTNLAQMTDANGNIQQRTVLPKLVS
Sequence of UniProt Q9H4B4 (whole entry, looked up): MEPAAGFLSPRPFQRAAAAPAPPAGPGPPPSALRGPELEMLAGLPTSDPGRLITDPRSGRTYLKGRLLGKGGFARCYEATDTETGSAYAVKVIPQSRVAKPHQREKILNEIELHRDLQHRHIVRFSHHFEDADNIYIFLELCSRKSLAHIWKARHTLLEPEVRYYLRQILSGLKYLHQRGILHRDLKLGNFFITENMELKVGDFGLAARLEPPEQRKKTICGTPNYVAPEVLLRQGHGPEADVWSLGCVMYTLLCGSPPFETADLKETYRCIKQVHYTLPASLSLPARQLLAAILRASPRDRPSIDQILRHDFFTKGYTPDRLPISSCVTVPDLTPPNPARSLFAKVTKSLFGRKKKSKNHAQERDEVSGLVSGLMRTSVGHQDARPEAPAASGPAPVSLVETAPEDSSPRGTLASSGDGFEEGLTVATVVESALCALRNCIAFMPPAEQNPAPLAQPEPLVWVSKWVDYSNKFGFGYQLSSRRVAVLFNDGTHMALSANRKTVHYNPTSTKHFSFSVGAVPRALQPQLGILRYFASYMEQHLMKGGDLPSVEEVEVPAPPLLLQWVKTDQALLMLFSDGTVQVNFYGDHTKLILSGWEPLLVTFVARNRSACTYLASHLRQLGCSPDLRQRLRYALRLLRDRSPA
Sequence of UniProt Q9P1W9 (whole entry, looked up): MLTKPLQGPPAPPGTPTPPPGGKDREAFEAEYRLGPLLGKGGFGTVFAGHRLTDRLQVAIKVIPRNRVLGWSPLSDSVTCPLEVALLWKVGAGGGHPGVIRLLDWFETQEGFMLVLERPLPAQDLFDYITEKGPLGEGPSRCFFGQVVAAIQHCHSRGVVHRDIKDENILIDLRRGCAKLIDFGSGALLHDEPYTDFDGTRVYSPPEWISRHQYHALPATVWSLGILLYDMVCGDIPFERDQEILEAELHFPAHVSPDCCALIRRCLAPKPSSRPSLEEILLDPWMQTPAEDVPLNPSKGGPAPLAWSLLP
Sequence of UniProt Q00537 (whole entry, looked up): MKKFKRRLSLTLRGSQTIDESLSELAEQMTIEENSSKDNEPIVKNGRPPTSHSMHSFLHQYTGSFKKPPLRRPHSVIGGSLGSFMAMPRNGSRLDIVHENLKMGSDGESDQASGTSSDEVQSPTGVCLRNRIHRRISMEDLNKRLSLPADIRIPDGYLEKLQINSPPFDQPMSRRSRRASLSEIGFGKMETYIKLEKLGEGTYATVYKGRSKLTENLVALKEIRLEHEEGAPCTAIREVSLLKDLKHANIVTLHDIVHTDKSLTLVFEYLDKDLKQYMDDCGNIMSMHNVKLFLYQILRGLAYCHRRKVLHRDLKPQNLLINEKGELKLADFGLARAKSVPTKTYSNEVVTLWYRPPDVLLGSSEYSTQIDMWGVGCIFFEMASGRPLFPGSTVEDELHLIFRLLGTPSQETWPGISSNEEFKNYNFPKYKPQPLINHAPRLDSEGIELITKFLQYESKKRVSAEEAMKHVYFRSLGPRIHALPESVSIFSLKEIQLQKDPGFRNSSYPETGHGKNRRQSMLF
Sequence of UniProt Q9H2G2 (whole entry, looked up): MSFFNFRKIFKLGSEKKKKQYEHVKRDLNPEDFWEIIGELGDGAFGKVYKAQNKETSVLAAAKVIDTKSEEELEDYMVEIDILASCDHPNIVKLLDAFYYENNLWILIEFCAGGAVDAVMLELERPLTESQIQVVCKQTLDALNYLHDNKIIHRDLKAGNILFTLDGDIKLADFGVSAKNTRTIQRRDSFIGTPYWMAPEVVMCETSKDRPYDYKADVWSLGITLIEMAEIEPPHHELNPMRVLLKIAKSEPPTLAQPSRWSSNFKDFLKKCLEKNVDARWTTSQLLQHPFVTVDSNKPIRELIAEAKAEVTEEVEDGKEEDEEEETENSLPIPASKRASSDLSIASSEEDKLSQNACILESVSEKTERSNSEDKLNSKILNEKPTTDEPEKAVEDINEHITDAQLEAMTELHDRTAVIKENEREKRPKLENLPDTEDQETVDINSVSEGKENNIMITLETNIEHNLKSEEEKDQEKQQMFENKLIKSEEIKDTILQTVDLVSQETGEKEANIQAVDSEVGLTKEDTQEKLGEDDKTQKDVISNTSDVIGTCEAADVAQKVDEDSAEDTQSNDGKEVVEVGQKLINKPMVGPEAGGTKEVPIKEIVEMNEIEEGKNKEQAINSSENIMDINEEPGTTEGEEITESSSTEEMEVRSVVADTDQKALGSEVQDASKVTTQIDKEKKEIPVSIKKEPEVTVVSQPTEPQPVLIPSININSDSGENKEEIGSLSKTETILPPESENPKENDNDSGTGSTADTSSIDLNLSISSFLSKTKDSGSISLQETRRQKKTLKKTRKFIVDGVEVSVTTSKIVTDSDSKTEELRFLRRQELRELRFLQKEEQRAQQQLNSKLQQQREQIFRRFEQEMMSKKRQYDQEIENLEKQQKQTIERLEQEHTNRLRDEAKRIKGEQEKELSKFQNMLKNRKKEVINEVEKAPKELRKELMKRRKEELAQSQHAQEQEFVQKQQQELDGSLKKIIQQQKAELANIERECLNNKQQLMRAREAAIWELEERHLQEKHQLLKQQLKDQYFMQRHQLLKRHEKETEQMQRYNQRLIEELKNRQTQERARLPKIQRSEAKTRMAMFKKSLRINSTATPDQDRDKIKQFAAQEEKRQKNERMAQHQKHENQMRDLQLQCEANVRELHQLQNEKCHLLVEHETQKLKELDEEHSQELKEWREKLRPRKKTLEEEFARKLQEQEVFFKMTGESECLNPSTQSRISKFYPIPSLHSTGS
Sequence of UniProt Q15759 (whole entry, looked up): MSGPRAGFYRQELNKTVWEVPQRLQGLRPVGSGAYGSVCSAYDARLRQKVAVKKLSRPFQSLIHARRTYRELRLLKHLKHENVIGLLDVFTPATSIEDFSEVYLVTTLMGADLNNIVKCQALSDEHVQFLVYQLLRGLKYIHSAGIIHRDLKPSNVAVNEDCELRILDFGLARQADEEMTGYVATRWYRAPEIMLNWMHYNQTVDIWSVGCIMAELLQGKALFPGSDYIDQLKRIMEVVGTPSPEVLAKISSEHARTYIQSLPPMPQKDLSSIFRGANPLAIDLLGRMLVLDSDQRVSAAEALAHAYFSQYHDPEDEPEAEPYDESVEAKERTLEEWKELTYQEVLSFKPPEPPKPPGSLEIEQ
Sequence of UniProt Q15418 (whole entry, looked up): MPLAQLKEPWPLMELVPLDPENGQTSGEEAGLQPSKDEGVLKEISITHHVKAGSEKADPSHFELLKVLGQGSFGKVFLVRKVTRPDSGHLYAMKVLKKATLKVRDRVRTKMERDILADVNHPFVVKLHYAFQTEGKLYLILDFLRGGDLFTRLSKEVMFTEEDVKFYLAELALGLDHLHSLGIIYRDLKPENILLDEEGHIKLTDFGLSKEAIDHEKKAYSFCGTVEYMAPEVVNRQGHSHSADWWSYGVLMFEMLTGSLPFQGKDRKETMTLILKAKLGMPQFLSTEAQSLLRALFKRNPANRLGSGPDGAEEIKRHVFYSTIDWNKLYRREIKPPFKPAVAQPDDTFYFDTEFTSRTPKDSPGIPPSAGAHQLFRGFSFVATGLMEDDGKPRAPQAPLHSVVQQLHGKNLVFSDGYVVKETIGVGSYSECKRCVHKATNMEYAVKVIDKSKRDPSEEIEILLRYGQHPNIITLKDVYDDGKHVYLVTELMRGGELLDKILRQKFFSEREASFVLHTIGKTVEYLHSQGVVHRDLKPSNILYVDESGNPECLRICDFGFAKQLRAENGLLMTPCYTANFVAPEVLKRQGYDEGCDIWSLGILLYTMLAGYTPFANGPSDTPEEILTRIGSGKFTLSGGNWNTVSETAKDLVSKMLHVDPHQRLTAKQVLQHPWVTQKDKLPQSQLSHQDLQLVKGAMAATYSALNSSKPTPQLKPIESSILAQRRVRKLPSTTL
Sequence of UniProt Q8IY84 (whole entry, looked up): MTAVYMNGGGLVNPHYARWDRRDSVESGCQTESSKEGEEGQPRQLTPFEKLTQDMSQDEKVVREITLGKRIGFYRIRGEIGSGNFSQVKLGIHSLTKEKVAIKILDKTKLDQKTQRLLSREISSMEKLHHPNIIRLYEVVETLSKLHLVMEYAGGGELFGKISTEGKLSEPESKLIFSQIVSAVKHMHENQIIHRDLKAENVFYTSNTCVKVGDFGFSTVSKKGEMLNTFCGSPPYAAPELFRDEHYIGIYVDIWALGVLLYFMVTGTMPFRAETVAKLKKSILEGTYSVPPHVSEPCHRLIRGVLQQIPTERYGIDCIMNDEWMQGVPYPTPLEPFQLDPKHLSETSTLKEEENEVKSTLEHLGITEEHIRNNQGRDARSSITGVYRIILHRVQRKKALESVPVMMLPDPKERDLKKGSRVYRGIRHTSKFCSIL

Sample 1
Structure (SMILES): CC(C)n1cnc(-c2ccc(F)cc2)c1-c1ncc(C(=O)Nc2ccc(N3CCN(C)CC3)cc2)[nH]1
Method: phase 2a trial
Host: idiopathic pulmonary fibrosis patients
Quantity: patients with dyspnoea
60 mg once daily, adverse event grade 1: 0%
30 mg once daily, adverse event grade 5: 0%
60 mg once daily, adverse event grade 4: 0%

Sample 2
Structure (SMILES): CNCc1ccccc1-c1csc([C@@H](C)Nc2nc(C)nc3cc(OC)c(OC)cc23)c1
Read-out: cell-free assay
Method: competition with immobilised ligand
Tested at: 1 µM
Quantity: remaining binding
PLK3 (Homo sapiens, UniProt Q9H4B4): 91%
ULK2 (Homo sapiens, UniProt Q8IYT8): 100%
PIK3CA (Homo sapiens, UniProt P42336, M1043I): 56%
PIM2 (Homo sapiens, UniProt Q9P1W9): 100%
CDK17 (Homo sapiens, UniProt Q00537): 94%
MAP3K4 (Homo sapiens, UniProt Q9Y6R4): 73%
MAP4K2 (Homo sapiens, UniProt Q12851): 91%
MAPK11 (Homo sapiens, UniProt Q15759): 86%
NIM1K (Homo sapiens, UniProt Q8IY84): 93%
Ribosomal protein S6 kinase alpha-1, C-terminal kinase domain (RPS6KA1, Homo sapiens, UniProt Q15418): 100%
SLK (Homo sapiens, UniProt Q9H2G2): 97%
MYLK2 (Homo sapiens, UniProt Q9H1R3): 91%
MARK2 (Homo sapiens, UniProt Q7KZI7): 99%
HIPK1 (Homo sapiens, UniProt Q86Z02): 78%
DAPK3 (Homo sapiens, UniProt O43293): 100%
DYRK2 (Homo sapiens, UniProt Q92630): 92%
STK32B (Homo sapiens, UniProt Q9NY57): 100%

Sample 3
Cell line: mouse MPNST tumor cells
Method: high-content immunofluorescence imaging
Item: nuclear SOX9
Tested at: 10 µM
Time: 12 h
Setting: mean of 2 replicates
Baseline: DMSO control
Reading: higher = more nuclear SOX9
Quantity: nuclear SOX9 intensity
CN1CC(=O)N2[C@H](c3ccc4c(c3)OCO4)c3[nH]c4ccccc4c3C[C@@H]2C1=O: 92.8 % of DMSO and 91.2 % of DMSO
CC[C@H]1OC(=O)[C@H](C)[C@@H](O[C@H]2C[C@@](C)(OC)[C@@H](O)[C@H](C)O2)[C@H](C)[C@@H](O[C@@H]2O[C@H](C)C[C@H](N(C)C)[C@H]2O)[C@](C)(O)C[C@@H](C)[C@@H]2N[C@@H](COCCOC)O[C@H]([C@H]2C)[C@]1(C)O: 117 % of DMSO
CCN(CCO)CCCC(C)Nc1ccnc2cc(Cl)ccc12 (stereo not drawn): 102 % of DMSO and 98 % of DMSO
O=C(c1ccc(F)cc1)C1CCN(CCn2c(=O)[nH]c3ccccc3c2=O)CC1: 103 % of DMSO

Sample 4
Target: Sal-like protein 4, full length isoform B (SALL4, Homo sapiens, UniProt Q9UJQ4-2, residues 1-616)
Method: universal PBM
Molecule type: double-stranded DNA, one strand shown
Sample: in vitro
Tested at: not given
Setting: 8-mer, flanks averaged, mean of replicates
Reading: higher = stronger binding
Quantity: E-score
Residues (chain): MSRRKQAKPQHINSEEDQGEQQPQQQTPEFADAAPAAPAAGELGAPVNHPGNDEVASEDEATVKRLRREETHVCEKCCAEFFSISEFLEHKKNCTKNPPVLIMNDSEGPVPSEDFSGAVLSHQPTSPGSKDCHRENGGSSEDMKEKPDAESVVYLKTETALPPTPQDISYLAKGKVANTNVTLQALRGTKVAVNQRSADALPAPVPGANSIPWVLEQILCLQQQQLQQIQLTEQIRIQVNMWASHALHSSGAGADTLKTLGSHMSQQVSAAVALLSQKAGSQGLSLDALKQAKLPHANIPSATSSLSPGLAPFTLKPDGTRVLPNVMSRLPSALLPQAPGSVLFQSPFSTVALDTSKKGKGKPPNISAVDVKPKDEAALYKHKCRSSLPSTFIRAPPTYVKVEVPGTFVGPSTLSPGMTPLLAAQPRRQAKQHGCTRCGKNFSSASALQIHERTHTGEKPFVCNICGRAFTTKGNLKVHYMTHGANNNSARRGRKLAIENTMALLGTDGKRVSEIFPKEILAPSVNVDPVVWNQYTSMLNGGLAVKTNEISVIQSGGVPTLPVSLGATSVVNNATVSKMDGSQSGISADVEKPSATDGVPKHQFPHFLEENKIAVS
ATCTTGCG: 0.0815
CAACCTTC: -0.0337
GTACTGAA: 0.114
CGTAAGTA: 0.121
GACGAATA: 0.155
GCCTAGCA: -0.0839
CTTTTTAA: 0.265
AGGGACAA: -0.137

Sample 5
Host: human
Sample: microsomes or S9
Tested at: 2 µM
Time: 0.5 h
Quantity: remaining compound
CC[C@@H](C)[C@H](NS(=O)(=O)c1ccccc1)C(=O)O: 67.5%
Cc1nccc(-c2ccccc2Cl)c1C(OC(C)(C)C)C(=O)NCCO (stereo not drawn): 3.52%
NC(=O)CCN(Cc1ccccc1)C(=O)c1ccccc1OCc1ccccc1: 1.82%

Sample 6
Structure (SMILES): c1ccc(Oc2ccc(Nc3c4c(nc5ccccc35)CCC4)cc2)cc1
Quantity: cytotoxicity
RAW264.7; resazurin; 0.32 µM: -8% and 10%
RAW264.7; resazurin; 0.66 µM: -6% and -7%
PMA-differentiated THP-1 macrophages; 4 µM, 64 h: -7% and 12%
J774.1; resazurin; 66.66 µM, 64 h: 92%
